Measured values of several laboratories.
Compare with care: the assays were run in different laboratories. ± marks the error that the study gave.
Target: Acetylcholinesterase (ACHE, Homo sapiens, UniProt P22303)
UniProt P22303, sequence (whole entry, looked up): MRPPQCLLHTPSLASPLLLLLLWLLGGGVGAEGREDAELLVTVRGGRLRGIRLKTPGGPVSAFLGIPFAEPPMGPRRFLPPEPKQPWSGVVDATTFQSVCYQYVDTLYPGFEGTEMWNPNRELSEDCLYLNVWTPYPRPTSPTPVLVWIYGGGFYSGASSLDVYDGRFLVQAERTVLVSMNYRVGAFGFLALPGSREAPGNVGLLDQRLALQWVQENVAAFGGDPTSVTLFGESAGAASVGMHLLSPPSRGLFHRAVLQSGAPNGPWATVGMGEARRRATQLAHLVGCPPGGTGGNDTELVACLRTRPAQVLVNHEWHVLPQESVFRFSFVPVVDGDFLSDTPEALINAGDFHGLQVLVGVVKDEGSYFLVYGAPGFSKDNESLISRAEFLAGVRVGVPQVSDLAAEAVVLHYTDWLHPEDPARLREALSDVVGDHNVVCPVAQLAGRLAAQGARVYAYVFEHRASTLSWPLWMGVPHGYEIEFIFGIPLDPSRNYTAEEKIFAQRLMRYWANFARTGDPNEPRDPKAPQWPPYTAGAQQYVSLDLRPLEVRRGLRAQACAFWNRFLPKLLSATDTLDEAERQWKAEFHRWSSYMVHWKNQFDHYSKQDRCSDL

Compound | assay | conditions | IC50
O=c1c(O)c(-c2ccc(O)cc2)oc2c(Cc3c(O)cc(O)c4c(=O)c(O)c(-c5ccc(O)cc5)oc34)c(O)cc(O)c12 | enzyme activity, inhibitor, Ellman | – | 1.42 µM
Cc1ccccc1C[n+]1cccc(CNC(=O)c2ccc(CN3C(=O)c4ccccc4C3=O)cc2)c1 | enzyme activity, inhibitor, Ellman | – | 2.37 µM
COc1ccc(/C=C2/SC(Nc3nc(-c4ccc(OC)cc4)cs3)=NC2=O)cc1 | enzyme activity, inhibitor, Ellman | – | 0.109 µM
CC(=O)C(=NNc1ccc2c(C)cc(=O)oc2c1)N1CCCCC1 | enzyme activity, inhibitor, Ellman | – | 46.2 µM
COc1cc2c(cc1OC)C(=O)/C(=C\c1ccc(Cl)cc1)C2 | enzyme activity, inhibitor, Ellman | – | > 10 µM
O=C1c2c(O)cc(O)cc2O[C@@]2(c3ccc(O)cc3)Oc3cc4oc(-c5ccc(O)c(O)c5)c(O)c(=O)c4c(O)c3[C@@]12O | enzyme activity, inhibitor, Ellman | – | > 50 µM
O=C(Cc1ccccc1)C(F)(F)F | enzyme activity, inhibitor, Ellman | – | 0.51 µM
O=C1c2c(O)cc(O)cc2O[C@H](c2ccc(O)c(O)c2)[C@H]1O | enzyme activity, inhibitor, Ellman | – | 43.9 µM
COc1cc(C=O)ccc1OC(=O)CSc1nnc(Cn2cnc3c2c(=O)n(C)c(=O)n3C)o1 | enzyme activity, inhibitor, Ellman | – | 5.55 µM
O=C1C=C(OCCCCn2cc(CNc3ccc4nccnc4c3)nn2)C(=O)c2ccccc21 | enzyme activity, inhibitor, Ellman | – | 31.1 µM
Cc1ccc(-c2csc(NC3=NC(=O)/C(=C\c4cccs4)S3)n2)cc1 | enzyme activity, inhibitor, Ellman | – | 0.174 µM
O=C1c2c(O)cc(O)cc2O[C@]2(c3ccc(O)cc3)Oc3cc(O)c4c(=O)c(O)c(-c5ccc(O)c(O)c5)oc4c3[C@]12O | enzyme activity, inhibitor, Ellman | – | > 50 µM
COc1cc2c(cc1OC)C(=O)/C(=C\c1ccccc1)C2 | enzyme activity, inhibitor, Ellman | – | > 10 µM
COc1c(OC(=O)N(C)c2cccc(Cl)c2)cc2oc3cc4c(c(O)c3c(=O)c2c1CC=C(C)C)C=CC(C)(C)O4 | enzyme activity, inhibitor | – | 47.8 µM
CNCCc1ccc(O)cc1 | enzyme activity, inhibitor | no inhibition observed | 464 ± 9.65 µM
COc1cc(/C=N\N=C(\C)c2ccc(OCc3ccc(Br)cc3)cc2)ccc1O | enzyme activity, inhibitor | – | 15.9 µM
CC(=O)C(Cl)=NNc1ccc2c(C)cc(=O)oc2c1 | enzyme activity, inhibitor, Ellman | – | 42.5 µM
Cc1nc2ccc(NCc3cn(CCCCCCOC4=CC(=O)c5ccccc5C4=O)nn3)cc2nc1C | enzyme activity, inhibitor, Ellman | – | 9 µM
Cc1cc(O)c2c(c1)C(=O)c1c(O)ccc(O)c1C2=O | enzyme activity, inhibitor, Ellman | – | 7.9 µM
CC(=O)C(=NNc1ccc2c(C)cc(=O)oc2c1)N1CCNCC1 | enzyme activity, inhibitor, Ellman | – | 137 µM
CCOc1cccc(N(C)C(=O)Oc2cc3oc4cc5c(c(O)c4c(=O)c3c(CC=C(C)C)c2OC)C=CC(C)(C)O5)c1 | enzyme activity, inhibitor | – | 37.5 µM
COc1cc2c(cc1OC)C(=O)C(=Cc1ccc(N3CCN(C)CC3)cc1)C2 | enzyme activity, inhibitor, Ellman | – | 0.9 µM
COc1ccccc1N(C)C(=O)Oc1cc2oc3cc4c(c(O)c3c(=O)c2c(CC=C(C)C)c1OC)C=CC(C)(C)O4 | enzyme activity, inhibitor | – | > 100 µM
O=C1N[C@H]2[C@H](O)[C@H](O)[C@@H](O)C[C@@H]2c2cc3c(c(O)c21)OCO3 | enzyme activity, inhibitor | – | 1590 µM
CC(=O)C1=NN(c2ccc3c(C)cc(=O)oc3c2)C(=O)C2CCCN12 (stereo not shown) | enzyme activity, inhibitor, Ellman | – | 163 µM
COc1cc(Br)cc(/C=N/N2C(=O)c3ccccc3NC2c2cc(Br)cc(OC)c2O)c1O (stereo not shown) | enzyme activity, inhibitor, Ellman | – | 19.5 µM

Compound | assay | conditions | IC50
CCOc1ccc2nc3cc(N)ccc3c(N)c2c1 | enzyme activity, inhibitor, Ellman | – | 6.9 µM
O=C(NCc1ccc[n+](Cc2ccc(Cl)cc2Cl)c1)c1ccc(CN2C(=O)c3ccccc3C2=O)cc1 | enzyme activity, inhibitor, Ellman | – | 8.33 µM
O=C1c2ccccc2NC(c2cc([N+](=O)[O-])ccc2O)N1/N=C/c1cc([N+](=O)[O-])ccc1O (stereo not shown) | enzyme activity, inhibitor, Ellman | – | 14.2 µM
COc1cc(/C=C/C(=O)CC(=O)/C=C/c2ccc(OC(=O)CCc3c[nH]c4ccccc34)c(OC)c2)ccc1OC(=O)CCc1c[nH]c2ccccc12 | enzyme activity, inhibitor | – | 59.3 µM
COc1cc2c(cc1OC)C(=O)/C(=C\c1ccc(N3CCCCC3)cc1)C2 | enzyme activity, inhibitor, Ellman | – | 26 µM
COc1ccc2[nH]cc(CCNS(=O)(=O)CCc3cn(-c4cnc5ccccc5c4)nn3)c2c1 | enzyme activity, inhibitor | – | 1.35 µM
O=C1c2c(O)cc(O)cc2O[C@@]2(c3ccc(O)c(O)c3)Oc3cc4oc(-c5ccc(O)cc5)c(O)c(=O)c4c(O)c3[C@@]12O | enzyme activity, inhibitor, Ellman | – | 6.25 µM
CCCCC/C=C/CCCCCCCC(O)C(O)C(CO[C@@H]1O[C@H](CO)[C@@H](O)[C@H](O)[C@H]1O)NC(=O)C(O)CCCCCCCCCCCCCCCCCCCCCC (stereo partly shown) | enzyme activity | – | 463 µM
COc1cc2c(cc1OC)C(=O)/C(=C\c1ccc(N3CCOCC3)cc1)C2 | enzyme activity, inhibitor, Ellman | – | 57.5 µM
CCN(CCCCOc1ccc(CCC(=O)N2CCC(Cc3ccccc3)CC2)cc1OC)Cc1ccccc1 | enzyme activity, inhibitor, Ellman | – | 5.7 µM
O=c1[nH]c2c(O)cccc2c2cc3c(c(O)c12)OCO3 | enzyme activity, inhibitor | no inhibition observed | 107 ± 2.45 µM
Cc1ccc(C[n+]2cccc(CNC(=O)c3ccc(CN4C(=O)c5ccccc5C4=O)cc3)c2)cc1 | enzyme activity, inhibitor, Ellman | – | 7.56 µM
O=c1c(O)c(-c2cc(O)ccc2O)oc2cc(O)cc(O)c12 | – | – | 298 µM
CCCN1CCN(C(=NNc2ccc3c(C)cc(=O)oc3c2)C(C)=O)CC1 | enzyme activity, inhibitor, Ellman | – | 222 µM
O=C1C=C(OCCCn2cc(CNc3ccc4nccnc4c3)nn2)C(=O)c2ccccc21 | enzyme activity, inhibitor, Ellman | – | 16.2 µM
COC(=O)c1ccc(-n2nc(-c3ccccc3O)nc2-c2ccccc2O)cc1 | – | – | 6.24 ± 0.16 µM
COc1c(OC(=O)N(C)c2cccc(Br)c2)cc2oc3cc4c(c(O)c3c(=O)c2c1CC=C(C)C)C=CC(C)(C)O4 | enzyme activity, inhibitor | – | 15.1 µM
COc1cc2c(cc1OC)C1C(O)C(OC)C(O)C3=CC[N+](CCl)(C2)C31 (stereo not shown) | enzyme activity, inhibitor | – | 76 µM
COc1ccc(O)c(/C=N/N2C(=O)c3ccccc3NC2c2cc(OC)ccc2O)c1 (stereo not shown) | enzyme activity, inhibitor, Ellman | – | 32.3 µM
Cc1nc2ccc(NCc3cn(CCCCCCCCOC4=CC(=O)c5ccccc5C4=O)nn3)cc2nc1C | enzyme activity, inhibitor, Ellman | – | 3.5 µM
COc1c(OC(=O)N(C)c2ccc(Cl)cc2)cc2oc3cc4c(c(O)c3c(=O)c2c1CC=C(C)C)C=CC(C)(C)O4 | enzyme activity, inhibitor | – | 43.6 µM
O=C1c2c(O)cc(O)cc2OC2(c3ccc(O)c(O)c3)Oc3cc(O)c4c(=O)c(O)c(-c5ccc(O)c(O)c5)oc4c3C12O (racemic) | – | – | 6.74 ± 0.04 µM
CCCCc1ccc(N(C)C(=O)Oc2cc3oc4cc5c(c(O)c4c(=O)c3c(CC=C(C)C)c2OC)C=CC(C)(C)O5)cc1 | enzyme activity, inhibitor | – | 34.5 µM
S=C(NCc1ccccn1)NCc1ccccn1 | enzyme activity, inhibitor | – | 317 µM
O=S(=O)(CCc1cn(-c2cnc3ccccc3c2)nn1)N1CCc2ccccc2C1 | enzyme activity, inhibitor | – | 2.18 µM
Fc1ccc(N2CCN(Cc3nnc(-c4ccccc4)o3)CC2)cc1 | enzyme activity, inhibitor, Ellman | – | 2.19 µM

Excerpt of the above:
Compound | assay | conditions | IC50
O=C1C=C(OCCCn2cc(CNc3ccc4nccnc4c3)nn2)C(=O)c2ccccc21 | enzyme activity, inhibitor, Ellman | – | 16.2 µM
O=C1c2c(O)cc(O)cc2O[C@@]2(c3ccc(O)cc3)Oc3cc4oc(-c5ccc(O)c(O)c5)c(O)c(=O)c4c(O)c3[C@@]12O | enzyme activity, inhibitor, Ellman | – | > 50 µM
COc1cc2c(cc1OC)C(=O)/C(=C\c1ccc(N3CCCCC3)cc1)C2 | enzyme activity, inhibitor, Ellman | – | 26 µM
O=S(=O)(CCc1cn(-c2cnc3ccccc3c2)nn1)N1CCc2ccccc2C1 | enzyme activity, inhibitor | – | 2.18 µM
O=C1N[C@H]2[C@H](O)[C@H](O)[C@@H](O)C[C@@H]2c2cc3c(c(O)c21)OCO3 | enzyme activity, inhibitor | – | 1590 µM
COc1ccc2[nH]cc(CCNS(=O)(=O)CCc3cn(-c4cnc5ccccc5c4)nn3)c2c1 | enzyme activity, inhibitor | – | 1.35 µM
Cc1cc(O)c2c(c1)C(=O)c1c(O)ccc(O)c1C2=O | enzyme activity, inhibitor, Ellman | – | 7.9 µM
COC(=O)c1ccc(-n2nc(-c3ccccc3O)nc2-c2ccccc2O)cc1 | – | – | 6.24 ± 0.16 µM
